Measurements from different studies.
Numbered parts are unrelated; each lists some results of a single study. Several values in a cell are separate wells, animals, samples, runs or records.
UniProt Q9H2X6, sequence (whole entry, looked up): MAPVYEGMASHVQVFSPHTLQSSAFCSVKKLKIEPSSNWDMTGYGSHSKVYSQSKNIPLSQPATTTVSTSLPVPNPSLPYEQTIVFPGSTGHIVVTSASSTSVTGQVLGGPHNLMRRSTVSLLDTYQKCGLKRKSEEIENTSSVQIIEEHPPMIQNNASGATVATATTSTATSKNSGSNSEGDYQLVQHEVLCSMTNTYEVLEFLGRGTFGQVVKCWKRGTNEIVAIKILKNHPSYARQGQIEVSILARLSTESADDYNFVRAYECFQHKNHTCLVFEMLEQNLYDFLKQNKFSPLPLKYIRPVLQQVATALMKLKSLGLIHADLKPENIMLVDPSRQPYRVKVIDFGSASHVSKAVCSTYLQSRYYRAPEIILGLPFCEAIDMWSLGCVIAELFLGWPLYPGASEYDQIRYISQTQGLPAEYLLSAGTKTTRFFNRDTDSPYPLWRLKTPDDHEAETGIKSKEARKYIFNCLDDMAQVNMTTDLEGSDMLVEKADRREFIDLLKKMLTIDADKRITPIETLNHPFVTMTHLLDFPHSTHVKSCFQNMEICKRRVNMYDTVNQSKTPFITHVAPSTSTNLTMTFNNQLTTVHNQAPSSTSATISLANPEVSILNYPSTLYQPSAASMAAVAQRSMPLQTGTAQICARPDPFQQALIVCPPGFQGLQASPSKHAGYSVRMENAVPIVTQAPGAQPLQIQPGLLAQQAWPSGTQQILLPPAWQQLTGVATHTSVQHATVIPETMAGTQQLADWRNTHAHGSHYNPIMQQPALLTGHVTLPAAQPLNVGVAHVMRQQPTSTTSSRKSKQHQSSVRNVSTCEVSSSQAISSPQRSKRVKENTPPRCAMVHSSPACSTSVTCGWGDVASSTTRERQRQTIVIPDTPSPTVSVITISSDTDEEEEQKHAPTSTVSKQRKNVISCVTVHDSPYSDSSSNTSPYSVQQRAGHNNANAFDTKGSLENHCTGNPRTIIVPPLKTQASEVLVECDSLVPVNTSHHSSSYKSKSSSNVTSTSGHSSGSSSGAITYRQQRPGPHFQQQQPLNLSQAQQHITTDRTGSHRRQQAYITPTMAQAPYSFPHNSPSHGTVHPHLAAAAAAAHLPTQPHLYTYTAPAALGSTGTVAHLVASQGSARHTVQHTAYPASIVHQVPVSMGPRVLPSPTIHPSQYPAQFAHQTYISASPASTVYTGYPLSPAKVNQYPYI
UniProt P10721, sequence (whole entry, unmodified, looked up): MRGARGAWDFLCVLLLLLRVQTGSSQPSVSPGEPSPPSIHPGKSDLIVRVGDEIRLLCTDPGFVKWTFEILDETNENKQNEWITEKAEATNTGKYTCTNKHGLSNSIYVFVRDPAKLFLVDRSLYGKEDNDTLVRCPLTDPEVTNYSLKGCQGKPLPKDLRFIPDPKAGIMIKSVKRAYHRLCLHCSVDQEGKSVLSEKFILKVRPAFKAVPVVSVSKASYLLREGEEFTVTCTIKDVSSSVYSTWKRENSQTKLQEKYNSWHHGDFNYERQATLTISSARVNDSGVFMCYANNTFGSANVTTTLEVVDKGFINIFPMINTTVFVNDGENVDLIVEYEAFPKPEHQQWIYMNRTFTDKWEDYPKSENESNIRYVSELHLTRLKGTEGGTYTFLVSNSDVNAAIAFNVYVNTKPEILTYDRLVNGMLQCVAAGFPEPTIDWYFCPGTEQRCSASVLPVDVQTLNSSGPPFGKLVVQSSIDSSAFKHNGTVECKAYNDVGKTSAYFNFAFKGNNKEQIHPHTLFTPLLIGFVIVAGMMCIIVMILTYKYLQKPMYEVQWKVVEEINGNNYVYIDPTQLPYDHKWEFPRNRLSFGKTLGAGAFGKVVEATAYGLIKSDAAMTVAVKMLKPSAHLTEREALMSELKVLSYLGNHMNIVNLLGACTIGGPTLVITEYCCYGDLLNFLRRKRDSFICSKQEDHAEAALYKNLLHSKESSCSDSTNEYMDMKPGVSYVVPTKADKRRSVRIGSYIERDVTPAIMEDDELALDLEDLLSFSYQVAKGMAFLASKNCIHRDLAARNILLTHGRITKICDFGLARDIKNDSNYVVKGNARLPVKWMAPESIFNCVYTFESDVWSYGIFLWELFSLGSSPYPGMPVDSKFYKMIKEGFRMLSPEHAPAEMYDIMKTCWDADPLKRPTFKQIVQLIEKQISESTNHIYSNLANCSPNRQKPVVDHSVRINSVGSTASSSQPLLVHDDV
UniProt Q8NG66, sequence (whole entry, looked up): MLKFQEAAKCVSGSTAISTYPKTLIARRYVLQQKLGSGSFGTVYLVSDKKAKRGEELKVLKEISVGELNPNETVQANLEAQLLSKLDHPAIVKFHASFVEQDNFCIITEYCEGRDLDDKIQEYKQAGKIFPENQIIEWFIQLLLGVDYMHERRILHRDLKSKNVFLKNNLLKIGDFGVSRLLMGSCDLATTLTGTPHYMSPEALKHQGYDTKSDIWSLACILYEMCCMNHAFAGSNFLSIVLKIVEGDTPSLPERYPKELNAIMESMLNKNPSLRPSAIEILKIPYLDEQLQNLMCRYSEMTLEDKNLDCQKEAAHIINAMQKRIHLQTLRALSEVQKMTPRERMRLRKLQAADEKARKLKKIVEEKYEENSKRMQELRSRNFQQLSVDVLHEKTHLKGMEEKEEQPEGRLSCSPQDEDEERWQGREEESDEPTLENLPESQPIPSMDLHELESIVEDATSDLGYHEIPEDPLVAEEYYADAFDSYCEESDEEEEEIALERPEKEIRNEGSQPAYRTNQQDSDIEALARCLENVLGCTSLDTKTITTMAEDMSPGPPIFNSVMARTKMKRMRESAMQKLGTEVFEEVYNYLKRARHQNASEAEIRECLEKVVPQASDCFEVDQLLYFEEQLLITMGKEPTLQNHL
UniProt P54762, sequence (whole entry, looked up): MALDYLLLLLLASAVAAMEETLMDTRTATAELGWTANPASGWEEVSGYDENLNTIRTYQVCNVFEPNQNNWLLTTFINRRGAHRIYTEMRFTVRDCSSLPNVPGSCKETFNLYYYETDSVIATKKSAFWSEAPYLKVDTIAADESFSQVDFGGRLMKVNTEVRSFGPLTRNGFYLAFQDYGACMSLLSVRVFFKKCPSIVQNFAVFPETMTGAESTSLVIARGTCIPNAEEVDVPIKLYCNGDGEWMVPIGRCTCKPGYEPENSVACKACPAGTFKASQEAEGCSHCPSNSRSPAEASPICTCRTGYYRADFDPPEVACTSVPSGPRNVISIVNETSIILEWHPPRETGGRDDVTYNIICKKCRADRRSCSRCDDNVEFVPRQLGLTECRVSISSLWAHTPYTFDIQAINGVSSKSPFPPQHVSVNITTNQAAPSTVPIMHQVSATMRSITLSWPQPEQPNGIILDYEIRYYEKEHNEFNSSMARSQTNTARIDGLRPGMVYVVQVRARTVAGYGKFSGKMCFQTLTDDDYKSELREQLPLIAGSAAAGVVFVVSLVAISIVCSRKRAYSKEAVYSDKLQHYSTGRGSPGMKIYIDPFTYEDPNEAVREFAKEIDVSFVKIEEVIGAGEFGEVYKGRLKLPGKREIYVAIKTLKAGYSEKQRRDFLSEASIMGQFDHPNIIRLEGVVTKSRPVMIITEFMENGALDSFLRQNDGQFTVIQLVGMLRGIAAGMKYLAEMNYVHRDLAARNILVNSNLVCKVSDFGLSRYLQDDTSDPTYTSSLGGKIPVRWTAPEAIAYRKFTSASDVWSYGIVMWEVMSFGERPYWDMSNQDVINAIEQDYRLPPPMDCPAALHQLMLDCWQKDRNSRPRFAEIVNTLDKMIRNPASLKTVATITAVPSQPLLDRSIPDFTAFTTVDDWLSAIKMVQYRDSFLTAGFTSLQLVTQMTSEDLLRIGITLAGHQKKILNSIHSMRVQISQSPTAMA
UniProt Q9H3Y6, sequence (whole entry, looked up): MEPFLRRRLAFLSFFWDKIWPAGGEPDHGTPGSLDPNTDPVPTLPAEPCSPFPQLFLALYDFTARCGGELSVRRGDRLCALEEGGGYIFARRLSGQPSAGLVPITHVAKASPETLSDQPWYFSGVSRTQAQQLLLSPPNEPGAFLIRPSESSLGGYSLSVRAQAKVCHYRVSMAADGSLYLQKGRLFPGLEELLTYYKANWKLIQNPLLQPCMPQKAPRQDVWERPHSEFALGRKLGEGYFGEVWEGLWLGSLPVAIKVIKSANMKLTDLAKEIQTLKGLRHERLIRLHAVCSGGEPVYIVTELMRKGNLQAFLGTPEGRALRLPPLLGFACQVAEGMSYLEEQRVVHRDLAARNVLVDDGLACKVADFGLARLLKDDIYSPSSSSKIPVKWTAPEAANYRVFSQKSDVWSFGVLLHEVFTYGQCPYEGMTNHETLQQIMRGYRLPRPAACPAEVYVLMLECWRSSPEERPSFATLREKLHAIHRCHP
UniProt O75582, sequence (whole entry, looked up): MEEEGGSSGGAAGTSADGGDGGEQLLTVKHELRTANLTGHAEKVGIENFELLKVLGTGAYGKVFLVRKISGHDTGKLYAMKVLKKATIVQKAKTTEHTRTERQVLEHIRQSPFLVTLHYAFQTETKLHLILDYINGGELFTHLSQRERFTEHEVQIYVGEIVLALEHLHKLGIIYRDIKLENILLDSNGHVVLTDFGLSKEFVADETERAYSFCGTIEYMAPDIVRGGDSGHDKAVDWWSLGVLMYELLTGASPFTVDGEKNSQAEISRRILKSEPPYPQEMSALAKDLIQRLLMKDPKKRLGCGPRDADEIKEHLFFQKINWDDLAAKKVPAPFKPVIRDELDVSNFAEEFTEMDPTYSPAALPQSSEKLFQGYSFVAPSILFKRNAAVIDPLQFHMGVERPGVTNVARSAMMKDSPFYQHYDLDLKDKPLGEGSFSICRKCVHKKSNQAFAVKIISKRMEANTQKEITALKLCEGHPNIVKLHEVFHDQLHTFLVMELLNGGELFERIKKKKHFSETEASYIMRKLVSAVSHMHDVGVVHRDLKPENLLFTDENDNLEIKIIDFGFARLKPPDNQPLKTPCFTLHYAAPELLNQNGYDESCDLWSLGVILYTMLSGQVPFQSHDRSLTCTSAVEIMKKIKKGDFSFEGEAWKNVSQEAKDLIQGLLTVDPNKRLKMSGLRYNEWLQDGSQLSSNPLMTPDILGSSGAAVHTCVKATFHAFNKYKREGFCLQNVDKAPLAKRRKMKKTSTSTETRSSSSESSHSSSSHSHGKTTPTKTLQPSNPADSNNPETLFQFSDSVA

Series 1 — read-out: enzyme activity; action: inhibitor; tested at: 0.5 µM; relative to: control; measurement: remaining activity
Compound: O=C(c1cc2cc(O)ccc2[nH]1)c1cc2cc(O)ccc2[nH]1
EPHA4 (Homo sapiens, UniProt P54764): 109%
CAMK2B (Homo sapiens, UniProt Q13554): 93.4%
Cyclin-dependent kinase 4, with cyclin D3 (CDK4, Homo sapiens, UniProt P11802): 105%
PHKG1 (Homo sapiens, UniProt Q16816): 72.1%
RPS6KA6 (Homo sapiens, UniProt Q9UK32): 26.7%
ABL1 (Homo sapiens, UniProt P00519): 27.8%
STK16 (Homo sapiens, UniProt O75716): 54.6%
DYRK3 (Homo sapiens, UniProt O43781): 115%
AXL (Homo sapiens, UniProt P30530): 90.1%
BLK (Homo sapiens, UniProt P51451): 49.7%
HIPK4 (Homo sapiens, UniProt Q8NE63): 99.8%
Cyclin-dependent kinase 1, with cyclin B (CDK1, Homo sapiens, UniProt P06493): 60.5%
MAPKAPK3 (Homo sapiens, UniProt Q16644): 91.2%
WNK3 (Homo sapiens, UniProt Q9BYP7): 74.6%
Cyclin-dependent kinase 6, with cyclin D3 (CDK6, Homo sapiens, UniProt Q00534): 50.3%
MAP4K4 (Homo sapiens, UniProt O95819): 6.63%
TSSK2 (Homo sapiens, UniProt Q96PF2): 93.6%
STK17A (Homo sapiens, UniProt Q9UEE5): 51.7%
EPHB4 (Homo sapiens, UniProt P54760): 89.3%
RPS6KA5 (Homo sapiens, UniProt O75582): 96.1%
HIPK2 (Homo sapiens, UniProt Q9H2X6): 102%
PDPK1 (Homo sapiens, UniProt O15530): 97.2%
SRMS (Homo sapiens, UniProt Q9H3Y6): 93.7%
EPHB1 (Homo sapiens, UniProt P54762): 97%

Series 2 — host: C57BL/6 CES1-/- mice, EL4 tumour; route: subcutaneous; dose: 0.3 mg/kg/day DON equivalent; time: 5 days; measurement: metabolite peak intensity
Compound: CC(=O)N[C@@H](Cc1c[nH]c2ccccc12)C(=O)N[C@@H](CCC(=O)C=[N+]=[N-])C(=O)OC(C)C
UPLC-MS/MS metabolomics, item: glycine; EL4 tumour; normalised to tissue mass: 4.79e+08 a.u. and 4.19e+08 a.u. and 4.65e+08 a.u. and 3.13e+08 a.u. and 5.02e+08 a.u. and 4.76e+08 a.u.
UPLC-MS/MS, item: CMP; EL4 tumour: 3.02e+07 a.u. and 1.32e+07 a.u. and 2.43e+07 a.u. and 1.82e+07 a.u. and 3.44e+07 a.u. and 2.53e+07 a.u.
LC-MS/MS metabolomics, item: 2'-deoxyadenosine; EL4 tumour; normalised to tissue mass; higher = more metabolite: 50900 a.u. and 41600 a.u. and 72300 a.u. and 178000 a.u. and 94800 a.u. and 56800 a.u.
UPLC-MS/MS, item: isobutyrylcarnitine; EL4, tumour; normalised to tissue mass; higher = more metabolite: 1.32e+08 a.u. and 2.96e+07 a.u. and 1.11e+08 a.u. and 2.58e+07 a.u. and 8.3e+07 a.u. and 9.74e+07 a.u.
UPLC-MS/MS metabolomics, item: N-acetylaspartate; EL4 tumour; normalised to tissue mass; higher = more metabolite: 7.71e+08 a.u. and 4.17e+08 a.u. and 2.96e+08 a.u. and 3.56e+08 a.u. and 4.24e+08 a.u. and 5.43e+08 a.u.
UPLC-MS/MS, item: 5-oxoproline; EL4 tumour: 9.89e+06 a.u. and 8.84e+06 a.u. and 6.41e+06 a.u. and 1.05e+07 a.u. and 9.08e+06 a.u. and 1.19e+07 a.u.
UPLC-MS/MS, item: 7-methylguanine; EL4 tumour: 2.85e+06 a.u. and 1.93e+06 a.u. and 4.14e+06 a.u. and 3.75e+06 a.u. and 2.73e+06 a.u.
LC-MS/MS metabolomics, item: 2'-deoxycytidine; EL4 tumour; normalised to tissue mass; higher = more metabolite: 2.52e+07 a.u. and 3.62e+07 a.u. and 3.56e+07 a.u. and 3.9e+07 a.u. and 6.02e+07 a.u. and 3.6e+07 a.u.
LC-MS/MS metabolomics, item: 2-methylbutyrylcarnitine (C5); EL4 tumour; normalised to tissue mass; higher = more metabolite: 1.02e+07 a.u. and 1.08e+07 a.u. and 4.83e+06 a.u. and 3.86e+06 a.u. and 1.25e+07 a.u. and 1.46e+07 a.u.
UPLC-MS/MS, item: 5-aminovalerate; EL4 tumour: 1.41e+07 a.u. and 1.88e+07 a.u. and 1.87e+07 a.u. and 1.4e+07 a.u. and 1.36e+07 a.u. and 1.25e+07 a.u.

Series 3 — read-out: cell-free assay; method: competition with immobilised ligand; tested at: 1 µM; measurement: remaining binding
SMILES: CN(C(=O)c1ccccc1)c1cc(N(C)c2ccc3c(c2)CCc2ccc(C(=O)NCCN4CCOCC4)cc2C3=O)ccc1F
NEK11 (Homo sapiens, UniProt Q8NG66): 100%
Ribosomal protein S6 kinase alpha-2, C-terminal kinase domain (RPS6KA2, Homo sapiens, UniProt Q15349): 92%
STK4 (Homo sapiens, UniProt Q13043): 100%
PRKCD (Homo sapiens, UniProt Q05655): 87%
SNRK (Homo sapiens, UniProt Q9NRH2): 83%
KIT (Homo sapiens, UniProt P10721, V559D/V654A): 100%
DDR1 (Homo sapiens, UniProt Q08345): 96%
FGFR2 (Homo sapiens, UniProt P21802): 99%
Tyrosine-protein kinase ABL1, non-phosphorylated (ABL1, Homo sapiens, UniProt P00519, H396P): 92%
AKT1 (Homo sapiens, UniProt P31749): 100%
SRPK2 (Homo sapiens, UniProt P78362): 100%
MAP3K14 (Homo sapiens, UniProt Q99558): 79%
KIT (Homo sapiens, UniProt P10721, D816V): 82%
STK38 (Homo sapiens, UniProt Q15208): 82%
HIPK2 (Homo sapiens, UniProt Q9H2X6): 100%
MAP4K5 (Homo sapiens, UniProt Q9Y4K4): 100%

Series 4 — measurement: patients with adverse event
Compound: CC(C)n1cnc(-c2ccc(F)cc2)c1-c1ncc(C(=O)Nc2ccc(N3CCN(C)CC3)cc2)[nH]1
Phase 2a trial, item: hyperuricaemia; human, idiopathic pulmonary fibrosis; 30 mg once daily, grade 5: 0%
item: prostatic calcification, maximum grade 2; idiopathic pulmonary fibrosis patients; oral, 30 mg once daily: 0%
Phase 2a trial, item: haemorrhoids; human, idiopathic pulmonary fibrosis; all compound arms, grade 2: 0%
Phase 2a trial, item: hyperlipidaemia; human, idiopathic pulmonary fibrosis; 30 mg once daily, grade 3: 0%
item: prostatic calcification, maximum grade 3; idiopathic pulmonary fibrosis patients; oral, 30 mg once daily: 0%
Phase 2a trial, item: hyperlipidaemia; human, idiopathic pulmonary fibrosis; all compound arms total, grade 5: 0%
Phase 2a trial, item: haemoptysis; human, idiopathic pulmonary fibrosis; 60 mg once daily, grade 2: 0%
item: skin papilloma, maximum grade 1; idiopathic pulmonary fibrosis patients; dose not given, all compound arms pooled: 0%
Phase 2a trial, item: hepatic steatosis; human, idiopathic pulmonary fibrosis; 30 mg once daily, grade 1: 0%
Phase 2a trial, item: haemorrhoids; human, idiopathic pulmonary fibrosis; 60 mg once daily, grade 5: 0%
item: prostatic calcification, maximum grade 3; idiopathic pulmonary fibrosis patients; oral, 60 mg once daily: 0%
Phase 2a trial, item: haemorrhoids; human, idiopathic pulmonary fibrosis; all compound arms, grade 3: 0%
Phase 2a trial, item: hypocalcaemia; human, idiopathic pulmonary fibrosis; all compound arms total, grade 5: 0%
Phase 2a trial, item: blood pressure increased; human, idiopathic pulmonary fibrosis; 30 mg once daily, grade 1: 0%
Phase 2a trial, item: haemorrhoids; human, idiopathic pulmonary fibrosis; 60 mg once daily, grade 1: 0%
